Results collected from several papers.
Every numbered part comes from another study and shows a few of its results, in no order. Substitutions count along the parent as printed.

Block 1
Target: RNA binding protein fox-1 homolog 2, RRM domain, GST-SBP tag (RBFOX2, Homo sapiens, UniProt O43251-10, residues 100-194)
Method: RNA Bind-n-Seq
Form: RNA
Medium: in vitro
Concentration: 365 nM
Notes: natural RNA segment, single round, ends assumed
Baseline: no-protein control
Reading: higher = stronger binding
Shared flanks, not repeated: GGGAGUUCUACAGUCCGACGAUC … UGGAAUUCUCGGGUGCCAA
Target sequence (chain): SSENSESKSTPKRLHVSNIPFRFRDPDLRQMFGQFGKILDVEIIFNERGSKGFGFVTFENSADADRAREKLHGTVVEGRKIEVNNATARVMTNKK
For `CUCCCUUGAGUGCUCACCCUCCACCUACCAGACUGGAAGCUGACUUUAAGUCCUCUAAUAAAAAUAAUGAGCCCUCCAAGUCCCUCUUGAUAGCUUCUAUUUGUUAGAAG`, “RBNS enrichment (R)” read 0.309.
For `GGGGCCUGGGCUCGGCCUAGCCAGCGCUCUCCCAGAAUUGAACACUUUCUGCCUGGGAUGUCUGCUGCAAAAGCAGUGACCUCUGACCCCUGGUGACCUUUGCUCUCGGC`, “RBNS enrichment (R)” read 0.393.
For `CAGGCUCUAGAGAGAGGGAGAAACAAGUGGACCUCGUCCCAUCUUCACUCUUCACUUGAGUUGGCUGUGUUCGGGGGAGCAGAGAGAGCCAGACAGCCCCAAGCUUCUGA`, “RBNS enrichment (R)” read 0.312.
For `AACGUGUAUCAUAAUGUGUAUAAUUGUGUAACAAAAUUGUCUACAAUAAAUCUUUUGGUAUUUGUGGUGGGUGUUUCUGAGUUUGAAGCAUGGUACUCAGGCAGGGUUCU`, “RBNS enrichment (R)” read 3.24.
`CUGGCAUGGUGAUAUAACUGAAAUCCCUGCACUUGGGAGGGUCACAAGUUUGAGGACCACCUUGGUGUAUAUAAGCAUGAUCUUUGUUCACACAUAAAAGAGAGAGGGAG` — result for “RBNS enrichment (R)”: 35.1.

Block 2
Target: Sal-like protein 4, full length isoform A (SALL4, Homo sapiens, UniProt Q9UJQ4, residues 1-1053)
UniProt Q9UJQ4, sequence (whole entry, looked up): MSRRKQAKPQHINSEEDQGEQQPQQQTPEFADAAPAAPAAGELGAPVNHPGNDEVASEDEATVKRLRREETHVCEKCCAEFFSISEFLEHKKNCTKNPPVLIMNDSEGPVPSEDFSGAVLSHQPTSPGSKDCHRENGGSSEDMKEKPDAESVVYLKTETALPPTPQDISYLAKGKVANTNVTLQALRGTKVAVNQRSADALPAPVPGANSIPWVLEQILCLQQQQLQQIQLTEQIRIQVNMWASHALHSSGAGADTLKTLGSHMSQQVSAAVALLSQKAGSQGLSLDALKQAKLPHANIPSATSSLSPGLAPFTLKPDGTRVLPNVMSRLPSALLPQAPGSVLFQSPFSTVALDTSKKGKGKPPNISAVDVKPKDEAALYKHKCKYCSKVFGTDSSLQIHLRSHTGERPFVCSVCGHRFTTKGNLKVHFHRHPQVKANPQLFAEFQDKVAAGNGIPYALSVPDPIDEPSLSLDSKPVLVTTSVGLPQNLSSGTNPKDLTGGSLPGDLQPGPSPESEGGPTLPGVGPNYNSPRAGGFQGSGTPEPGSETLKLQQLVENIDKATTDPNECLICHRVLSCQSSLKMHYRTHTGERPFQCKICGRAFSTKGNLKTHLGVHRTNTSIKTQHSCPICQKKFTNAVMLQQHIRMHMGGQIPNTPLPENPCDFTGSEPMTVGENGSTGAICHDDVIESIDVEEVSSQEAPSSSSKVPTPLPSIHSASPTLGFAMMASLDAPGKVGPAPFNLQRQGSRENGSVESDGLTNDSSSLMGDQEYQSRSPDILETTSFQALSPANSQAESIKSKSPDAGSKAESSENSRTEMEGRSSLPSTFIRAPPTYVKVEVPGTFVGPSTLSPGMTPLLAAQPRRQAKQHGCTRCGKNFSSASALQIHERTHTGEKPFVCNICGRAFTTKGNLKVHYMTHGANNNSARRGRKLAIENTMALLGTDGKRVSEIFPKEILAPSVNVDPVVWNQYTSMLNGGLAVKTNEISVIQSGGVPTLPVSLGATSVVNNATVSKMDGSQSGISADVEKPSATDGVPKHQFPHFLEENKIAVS
Method: universal PBM
Form: double-stranded DNA, one strand shown
Medium: in vitro
Concentration: 600 nM
Notes: 8-mer, flanks averaged, mean of replicates
Reading: higher = stronger binding
The E-score of `CTGTGCAA` is reported as 0.0574.
The E-score of `CGGTGCTA` is reported as -0.161.
The E-score of `GTCTGGGA` is reported as -0.227.
With `ACTCTCAT` the E-score was 0.0909.
`CCGAGACC` gave an E-score of -0.282.
For `GTTCCCAA`, the E-score was -0.138.
`GACCATCA` has an E-score of -0.0603.
With `GTAGCAAC` the E-score was 0.0448.
`AATATCAT` has an E-score of 0.377.

Block 3
Target: CCNB2, cyclin fold, Cln2 fusion (human)
Method: yeast growth competition, sequencing
Medium: yeast
Notes: weak parent motif
Baseline: not given
Reading: higher = stronger binding
Parent: SCAPER docking peptide (human); SNARRSLNFGGST
For `T13H`, “normalised enrichment score” read 0.015.
For `F9D`, “normalised enrichment score” read 0.223.
`G11V`: “normalised enrichment score” 0.396.
Under “normalised enrichment score”, `N8R` is recorded as 0.505.

Other studies, line by line
With `PhoQ, residues 284 288 289 292 302 303 SCEHLI` the fold induction was 24.8 (PhoP, residues 12 14 15 18 19 YHFSH (Escherichia coli, UniProt P23836); Sort-seq, measured: YFP reporter; E. coli; PhoQ-PhoP variant library, together with: 10 µM Mg2+; baseline: high Mg2+ state, higher = stronger signaling).

Some of these lines once more (block 3):
For `T13H`, “normalised enrichment score” read 0.015.
For `F9D`, “normalised enrichment score” read 0.223.
